Results of several laboratories.
Protocols differ between the studies behind these lines. ± marks the error that the study gave.
GRM2: Metabotropic glutamate receptor 2 (GRM2, Homo sapiens, UniProt Q14416)
UniProt Q14416, sequence (whole entry, looked up): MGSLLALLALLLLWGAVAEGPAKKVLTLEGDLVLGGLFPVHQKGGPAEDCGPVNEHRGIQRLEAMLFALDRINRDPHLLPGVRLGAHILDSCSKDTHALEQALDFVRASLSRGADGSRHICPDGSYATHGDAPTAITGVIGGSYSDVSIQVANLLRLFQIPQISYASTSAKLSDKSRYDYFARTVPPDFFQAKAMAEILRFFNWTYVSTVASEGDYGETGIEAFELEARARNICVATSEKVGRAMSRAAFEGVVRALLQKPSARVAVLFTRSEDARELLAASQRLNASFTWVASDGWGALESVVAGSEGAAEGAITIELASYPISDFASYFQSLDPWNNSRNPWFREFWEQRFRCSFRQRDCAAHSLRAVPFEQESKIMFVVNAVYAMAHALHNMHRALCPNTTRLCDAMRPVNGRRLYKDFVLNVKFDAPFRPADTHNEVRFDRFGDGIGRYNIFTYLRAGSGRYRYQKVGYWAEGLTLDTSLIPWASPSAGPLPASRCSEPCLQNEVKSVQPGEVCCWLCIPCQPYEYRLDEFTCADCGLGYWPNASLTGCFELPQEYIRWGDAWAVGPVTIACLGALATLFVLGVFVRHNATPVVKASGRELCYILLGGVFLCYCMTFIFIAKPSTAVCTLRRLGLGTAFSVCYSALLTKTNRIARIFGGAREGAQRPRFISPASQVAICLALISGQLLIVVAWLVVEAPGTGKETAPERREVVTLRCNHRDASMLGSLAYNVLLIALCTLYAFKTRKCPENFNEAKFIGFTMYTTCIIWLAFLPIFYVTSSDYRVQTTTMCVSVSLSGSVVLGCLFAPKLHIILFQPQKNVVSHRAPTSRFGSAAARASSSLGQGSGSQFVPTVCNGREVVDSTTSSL

Compound | tested on | assay | system | setting | scale | measurement | value
CC(C)C[C@H](NC(=O)OCc1cccc(Cl)c1)C(=O)N[C@H](C=O)C[C@@H]1CCNC1=O | feline coronavirus |  | CRFK, FIPV-1146 |  | relative to: CC50 over EC50 | therapeutic index | > 3750
C=CCCCC(C)(NC(=O)[C@H](Cc1c[nH]cn1)NC(=O)[C@@H](N)CC(=O)O)C(=O)N[C@@H](CC(N)=O)C(=O)N1CCC[C@H]1C(=O)N[C@@H](CCC(N)=O)C(=O)N[C@H](C(=O)N[C@@H](CCCNC(=N)N)C(N)=O)[C@@H](C)CC (stereo partly drawn) | A549 | MTT |  | up to 160 µM, 48 h |  | cytotoxicity | not toxic
COc1ccc(CNc2ccc(-c3ccn4c(CC5CC5)nnc4c3C(F)(F)F)cc2F)cn1 | GRM2 | agonist |  | no glutamate |  | EC50 | 141 nM
O=C(N[C@@H](CC1CCCCC1)C(=O)N[C@@H](C[C@@H]1CCNC1=O)C(=O)C(=O)NC1CC1)OCc1cccc(Cl)c1 | CRFK | cell growth or viability |  | 36 h |  | CC50 | > 150000 nM
Cc1cccc(-c2ccc3nc(NC(=O)CCc4ccccc4)nn3c2)c1 | crk3 (Leishmania mexicana, UniProt O15851) | enzyme activity, inhibitor, radiometric |  |  |  | IC50 | 30 nM
CC(C)C[C@H](NC(=O)[C@@H](NC(=O)[C@H](CCONC(=N)N)NC(=O)OCc1ccccc1)C1CCCCC1)[C@@H](O)CC(=O)NCCc1ccccc1 | Plasmodium falciparum | parasite growth, LDH | PMV T371P-HA CRISPR mutant | 72 h |  | EC50 | 823 nM
O=C(O)COc1ccc(Br)cc1C=NNC(=O)Cc1ccccc1 (mixture of isomers) |  | measured: ALT | mouse, serum | oral, 100 mg/kg, 48 h, safety assessment |  | serum enzyme activity | 35.8 ± 6.22 IU/L
CCCCn1ccn2c(-c3ccc(Oc4ccnc(C)c4)c(F)c3)c(C)nc2c1=O | GRM2 | agonist |  | no glutamate |  | EC50 | 575 nM
O=C(Nc1nc2ccccn2n1)C1CCCCC1 | Cyclin-dependent kinase 2, with cyclin A (CDK2, Homo sapiens, UniProt P24941) | enzyme activity, inhibitor |  |  |  | IC50 | > 100000 nM

Some of these lines once more:
Compound | tested on | assay | system | setting | scale | measurement | value
CC(C)C[C@H](NC(=O)[C@@H](NC(=O)[C@H](CCONC(=N)N)NC(=O)OCc1ccccc1)C1CCCCC1)[C@@H](O)CC(=O)NCCc1ccccc1 | Plasmodium falciparum | parasite growth, LDH | PMV T371P-HA CRISPR mutant | 72 h |  | EC50 | 823 nM
